Published values collected from several papers.
A part holds a random share of what one study measured. Values joined by “and” are separate records of one study, mostly repeats; a detail may differ.
Sequence of UniProt P07948 (whole entry, looked up): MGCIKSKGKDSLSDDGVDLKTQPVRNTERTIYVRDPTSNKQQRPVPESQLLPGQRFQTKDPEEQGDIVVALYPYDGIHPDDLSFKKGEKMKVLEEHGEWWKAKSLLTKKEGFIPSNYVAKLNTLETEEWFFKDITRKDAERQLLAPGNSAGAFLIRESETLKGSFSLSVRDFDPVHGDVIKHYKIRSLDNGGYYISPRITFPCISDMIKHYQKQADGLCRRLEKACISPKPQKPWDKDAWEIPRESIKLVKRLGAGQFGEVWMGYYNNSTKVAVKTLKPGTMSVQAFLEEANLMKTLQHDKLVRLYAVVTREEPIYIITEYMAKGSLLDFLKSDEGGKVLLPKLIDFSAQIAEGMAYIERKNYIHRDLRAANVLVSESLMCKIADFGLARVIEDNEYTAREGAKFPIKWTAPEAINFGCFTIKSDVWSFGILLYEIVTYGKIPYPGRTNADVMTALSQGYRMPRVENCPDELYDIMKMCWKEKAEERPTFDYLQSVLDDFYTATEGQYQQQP
Sequence of UniProt P33981 (whole entry, looked up): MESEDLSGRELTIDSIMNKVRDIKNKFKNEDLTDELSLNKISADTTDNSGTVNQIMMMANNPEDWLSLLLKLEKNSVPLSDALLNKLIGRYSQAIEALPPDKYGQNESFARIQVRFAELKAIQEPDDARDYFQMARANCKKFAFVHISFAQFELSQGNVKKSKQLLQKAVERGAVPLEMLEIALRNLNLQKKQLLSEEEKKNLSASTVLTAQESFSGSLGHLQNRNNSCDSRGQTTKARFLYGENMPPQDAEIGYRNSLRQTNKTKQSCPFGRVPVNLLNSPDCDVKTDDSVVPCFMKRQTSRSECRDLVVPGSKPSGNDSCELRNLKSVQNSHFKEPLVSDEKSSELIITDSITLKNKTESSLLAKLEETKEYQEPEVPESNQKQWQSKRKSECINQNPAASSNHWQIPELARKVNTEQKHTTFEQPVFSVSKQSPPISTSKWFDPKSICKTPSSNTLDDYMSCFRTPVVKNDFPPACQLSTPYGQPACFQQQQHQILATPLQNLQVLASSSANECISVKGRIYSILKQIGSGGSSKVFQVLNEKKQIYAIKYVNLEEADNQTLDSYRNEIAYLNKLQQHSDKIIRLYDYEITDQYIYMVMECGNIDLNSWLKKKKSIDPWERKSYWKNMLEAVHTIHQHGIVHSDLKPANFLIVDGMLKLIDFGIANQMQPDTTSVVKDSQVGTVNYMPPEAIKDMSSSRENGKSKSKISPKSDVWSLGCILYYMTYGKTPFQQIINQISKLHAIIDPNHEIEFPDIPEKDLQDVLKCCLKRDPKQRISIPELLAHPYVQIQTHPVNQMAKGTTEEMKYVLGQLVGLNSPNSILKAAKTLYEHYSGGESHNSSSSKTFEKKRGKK

Block 1 — read-out: KRAS-RAF interaction; action: inhibitor; technique: TR-FRET; together with: SOS-mediated nucleotide exchange; measurement: inhibition
Compound: CCN1CCN(Cc2ccc(COc3c(-c4c(C)c(F)cc5[nH]ncc45)c(C4CC4)cc4c(N5C[C@@H]6C[C@H]5CN6)nc(OC5CCOCC5)nc34)cc2)C(=O)C1
KRAS with RAF: GTPase KRas, with RAF (KRAS, Homo sapiens, UniProt P01116)
KRAS G12D with RAF: GTPase KRas, with RAF (KRAS, Homo sapiens, UniProt P01116, G12D)
KRAS with RAF; 300 nM: 58.4%
KRAS with RAF; 10 µM: 104% and 102%
KRAS with RAF; 100 nM: 11.3% and 9.03%
KRAS G12D with RAF; 1 µM: 100%
KRAS G12D with RAF; 30 nM: 7.87% and 7.17%
KRAS with RAF; 3 µM: 101%
KRAS G12D with RAF; 10 nM: -0.772% and 4.2%

Block 2 — read-out: binding; technique: HTRF; concentration: 12.35 nM; measurement: inhibition
Target: Membrane-associated tyrosine- and threonine-specific cdc2-inhibitory kinase (PKMYT1, Homo sapiens, UniProt Q99640)
Sequence of UniProt Q99640 (whole entry, looked up): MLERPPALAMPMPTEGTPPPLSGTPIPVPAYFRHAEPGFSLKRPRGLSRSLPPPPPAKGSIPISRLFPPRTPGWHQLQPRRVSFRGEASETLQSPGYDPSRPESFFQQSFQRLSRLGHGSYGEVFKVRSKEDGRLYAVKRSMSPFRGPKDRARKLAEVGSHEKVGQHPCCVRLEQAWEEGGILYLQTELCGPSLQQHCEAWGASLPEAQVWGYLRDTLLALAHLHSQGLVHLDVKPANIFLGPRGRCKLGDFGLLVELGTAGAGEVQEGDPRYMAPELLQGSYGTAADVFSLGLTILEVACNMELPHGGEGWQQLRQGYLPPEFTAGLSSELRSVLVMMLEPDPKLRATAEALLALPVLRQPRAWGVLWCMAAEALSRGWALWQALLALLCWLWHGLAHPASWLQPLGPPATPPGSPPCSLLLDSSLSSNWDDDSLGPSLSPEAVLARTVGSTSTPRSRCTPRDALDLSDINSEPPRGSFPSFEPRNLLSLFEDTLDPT
Cc1ncc(-c2cc3c(N)c(-c4c(C)ccc(O)c4C)cnc3[nH]2)cn1: 9.4% and 9.11%
Cc1ccc(O)c(C)c1-c1cnc2[nH]c(-c3cnc(N4CCC5(CC4)CC(N4CCN(c6cc7c(cc6F)c(N6CCC(=O)NC6=O)nn7C)CC4)CO5)nc3)cc2c1C#N (racemic): 75.5% and 79.4%
Cc1ccc(O)c(C)c1-c1cnc2[nH]c(-c3cnc(N4CCC(CN5CCN(c6c(F)cc(NC7CCC(=O)NC7=O)cc6F)CC5)CC4)nc3)cc2c1C#N (racemic): 46.4% and 44.2%
Cc1ccc(O)c(C)c1-c1cnc2[nH]c(-c3cnc(N4CCC5(CC4)CC(N4CCN(c6ccc7c(c6)C(=O)N(C6CCC(=O)NC6=O)C7=O)CC4)CO5)nc3)cc2c1C#N (mixture of isomers): 81.1% and 78.8%
Cc1ccc(O)c(C)c1-c1cnc2[nH]c(-c3cnc(N4CCC(CN5CCN(c6ccc(NC7CCC(=O)NC7=O)c(F)c6)CC5)CC4)nc3)cc2c1C#N (racemic): 81.4% and 82.2%
Cc1ccc(O)c(C)c1-c1cnc2[nH]c(-c3cnc(N4CCC(CCN5CCN(c6ccc7c(c6)C(=O)N(C6CCC(=O)NC6=O)C7=O)CC5)CC4)nc3)cc2c1C#N (racemic): 78.4% and 77.5%

Block 3 — concentration: 1 µM; measurement: remaining binding
SMILES: CC[C@@]1(c2ccccc2)C2=C(CC(C)(C)CC2=O)Nc2n[nH]cc21
CAMK1D (Homo sapiens, UniProt Q8IU85); kinase binding, KINOMEscan; baseline: DMSO control: 100%
SYK (Homo sapiens, UniProt P43405); kinase binding, KINOMEscan; baseline: DMSO control: 100%
Cyclin-dependent kinase 4, with cyclin D1 (CDK4, Homo sapiens, UniProt P11802); binding, competition with immobilised ligand: 86%
PAK5 (Homo sapiens, UniProt Q9P286); kinase binding, KINOMEscan; baseline: DMSO control: 88%
FLT3 (Homo sapiens, UniProt P36888, N841I); kinase binding, KINOMEscan; baseline: DMSO control: 100%
HIPK3 (Homo sapiens, UniProt Q9H422); kinase binding, KINOMEscan; baseline: DMSO control: 100%
PKMYT1 (Homo sapiens, UniProt Q99640); kinase binding, KINOMEscan; baseline: DMSO control: 85%
Tyrosine-protein kinase ABL1, non-phosphorylated (ABL1, Homo sapiens, UniProt P00519); kinase binding, KINOMEscan; baseline: DMSO control: 61%
Aurora kinase C (AURKC, Homo sapiens, UniProt Q9UQB9); binding, competition with immobilised ligand: 99%
PIK3CG (Homo sapiens, UniProt P48736); kinase binding, KINOMEscan; baseline: DMSO control: 100%
KIT (Homo sapiens, UniProt P10721, D816V); kinase binding, KINOMEscan; baseline: DMSO control: 100%
Non-receptor tyrosine-protein kinase TYK2, JH1 domain (TYK2, Homo sapiens, UniProt P29597); kinase binding, KINOMEscan; baseline: DMSO control: 100%
ACVR1B (Homo sapiens, UniProt P36896); kinase binding, KINOMEscan; baseline: DMSO control: 100%

Block 4 — measurement: inhibition
Compound: CN(C1COC1)C(C)(C)/C=C(\C#N)C(=O)N1CCC[C@H]1Cn1nc(-c2ccc(Oc3ccccc3)cc2F)c2c(N)ncnc21
TAOK3 (Homo sapiens, UniProt Q9H2K8); kinase activity; 0.1 µM: 6%
TTK (Homo sapiens, UniProt P33981); kinase activity; 0.1 µM: -5%
TEC (Homo sapiens, UniProt P42680); kinase activity; 1 µM: 91%
Cyclin-dependent kinase 3, with cyclin E (CDK3, Homo sapiens, UniProt Q00526); kinase activity; 0.1 µM: -4%
CK1; 0.1 µM, mean: -5%
Tyrosine-protein kinase Lyn, isoform A (LYN, Homo sapiens, UniProt P07948); kinase activity; 0.1 µM: 0%
BRAF (Homo sapiens, UniProt P15056); kinase activity; 1 µM: -2%
MINK1 (Homo sapiens, UniProt Q8N4C8); kinase activity; 0.1 µM: 7%
PIK3CD (Homo sapiens, UniProt O00329); kinase activity; 0.1 µM: 2%
EPHB2 (Homo sapiens, UniProt P29323); kinase activity; 0.1 µM: 13%
STK4 (Homo sapiens, UniProt Q13043); kinase activity; 0.1 µM: 6%
RPS6KA6 (Homo sapiens, UniProt Q9UK32); kinase activity; 0.1 µM: 3%
LTK (Homo sapiens, UniProt P29376); kinase activity; 0.1 µM: 2%
PRKCG (Homo sapiens, UniProt P05129); kinase activity; 1 µM: 0%
FYN (Homo sapiens, UniProt P06241); kinase activity; 0.1 µM: 21%

Block 5 — read-out: kinase activity; action: inhibitor; technique: ADP-Glo; concentration: 0.2222 µM; measurement: inhibition
Target: Cyclin-dependent kinase 12, with cyclin K (CDK12, Homo sapiens, UniProt Q9NYV4)
Sequence of UniProt Q9NYV4 (whole entry, looked up): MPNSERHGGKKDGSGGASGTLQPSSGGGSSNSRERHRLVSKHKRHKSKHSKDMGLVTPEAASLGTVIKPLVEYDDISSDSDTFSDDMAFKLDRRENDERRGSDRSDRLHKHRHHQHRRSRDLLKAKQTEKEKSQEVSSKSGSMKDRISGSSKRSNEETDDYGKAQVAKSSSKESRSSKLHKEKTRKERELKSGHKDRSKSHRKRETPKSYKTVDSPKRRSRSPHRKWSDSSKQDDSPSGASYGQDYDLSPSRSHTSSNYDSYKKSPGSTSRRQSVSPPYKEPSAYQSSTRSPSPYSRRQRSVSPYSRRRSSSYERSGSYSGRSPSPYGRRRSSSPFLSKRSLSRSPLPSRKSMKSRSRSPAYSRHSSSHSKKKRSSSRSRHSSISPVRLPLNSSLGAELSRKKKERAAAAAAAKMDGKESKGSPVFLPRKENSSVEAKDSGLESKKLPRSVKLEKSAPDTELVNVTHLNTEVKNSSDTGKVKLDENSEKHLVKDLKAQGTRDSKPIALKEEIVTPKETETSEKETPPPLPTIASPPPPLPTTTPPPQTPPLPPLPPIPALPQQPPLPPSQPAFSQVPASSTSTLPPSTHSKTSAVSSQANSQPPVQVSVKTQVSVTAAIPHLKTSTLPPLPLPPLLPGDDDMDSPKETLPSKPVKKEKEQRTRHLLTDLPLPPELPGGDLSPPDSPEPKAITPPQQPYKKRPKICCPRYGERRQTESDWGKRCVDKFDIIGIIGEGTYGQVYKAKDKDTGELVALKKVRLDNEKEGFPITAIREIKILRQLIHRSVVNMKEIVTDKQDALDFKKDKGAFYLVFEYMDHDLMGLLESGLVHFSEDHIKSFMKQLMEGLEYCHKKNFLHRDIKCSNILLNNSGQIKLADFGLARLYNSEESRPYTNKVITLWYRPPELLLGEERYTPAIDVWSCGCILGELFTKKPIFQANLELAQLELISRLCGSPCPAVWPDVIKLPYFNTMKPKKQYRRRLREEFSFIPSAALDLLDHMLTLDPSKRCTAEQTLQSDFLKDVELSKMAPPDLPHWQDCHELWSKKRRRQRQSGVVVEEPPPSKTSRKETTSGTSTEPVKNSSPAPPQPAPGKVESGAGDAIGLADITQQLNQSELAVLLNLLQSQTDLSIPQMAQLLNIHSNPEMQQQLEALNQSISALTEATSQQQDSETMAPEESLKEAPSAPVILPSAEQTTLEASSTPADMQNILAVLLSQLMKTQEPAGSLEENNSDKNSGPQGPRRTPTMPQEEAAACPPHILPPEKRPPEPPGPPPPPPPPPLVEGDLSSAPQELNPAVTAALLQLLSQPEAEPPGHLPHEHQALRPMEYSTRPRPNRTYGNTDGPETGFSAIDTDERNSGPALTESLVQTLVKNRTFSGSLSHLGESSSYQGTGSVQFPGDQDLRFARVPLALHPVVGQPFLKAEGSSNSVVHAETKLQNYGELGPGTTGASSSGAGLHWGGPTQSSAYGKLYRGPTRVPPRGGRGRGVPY
CCn1cnc2c(NCc3nc4cc(Cl)c(Cl)cc4[nH]3)nc(N3CCN(S(C)(=O)=O)CC3)nc21: 60.2%
CCn1cnc2c(NCc3nc4cc(Cl)c(Cl)cc4[nH]3)nc(N3CCN(C(=O)CNC(C)=O)CC3)nc21: 70.3%
CCn1cnc2c(NCc3nc4cc(Cl)c(Cl)cc4[nH]3)nc(N3CCC(NC(C)=O)CC3)nc21: 52.8%
CC(=O)N1CCN(c2nc(NCc3nc4cc(Cl)c(Cl)cc4[nH]3)c3ncn(-c4cnn(C)c4)c3n2)CC1: 58%
CCn1cnc2c(NCc3nc4cc(Cl)c(Cl)cc4[nH]3)nc(N3CCN(C(=O)c4cccnc4)CC3)nc21: 61.8%
CCCCOc1nc(NCc2nc3cc(Cl)c(Cl)cc3[nH]2)c2ncn(CC)c2n1: 42.1%
CCn1cnc2c(NCc3nc4cc(Cl)c(Cl)cc4[nH]3)nc(N3CCn4ncnc4C3)nc21: 79.4%
CCn1cnc2c(NCc3nc4cc(Cl)c(Cl)cc4[nH]3)nc(N3CCN(C(C)=O)CC3)nc21: 63.7%
Cn1cc(-n2cnc3c(NCc4nc5cc(Cl)c(Cl)cc5[nH]4)nc(N4CCNCC4)nc32)cn1: 24.8%
CCn1cnc2c(NCc3nc4cc(Cl)c(Cl)cc4[nH]3)nc(N3CCN(C(=O)c4ccccc4)CC3)nc21: 70.7%

Block 6 — read-out: thermal unfolding; technique: differential scanning fluorimetry; concentration: 5.5 µM; reading: higher = more unfolded; measurement: SYPRO Orange fluorescence
Compound: C[C@@H]1CN(c2ccc(-c3cc(C(=O)NCCOCCOCCOCCOCCNC(=O)Cn4cc(-c5[nH]cc(C(=O)N[C@@H](CC(N)=O)c6ccc(F)c(Cl)c6)c5-c5ccc(Cl)cc5F)cn4)ccc3F)cc2NC(=O)c2c[nH]c(=O)cc2C(F)(F)F)C[C@H](C)N1C
DCAF1: DDB1- and CUL4-associated factor 1 (DCAF1, Homo sapiens, UniProt Q9Y4B6)
Sequence of UniProt Q9Y4B6 (whole entry, looked up): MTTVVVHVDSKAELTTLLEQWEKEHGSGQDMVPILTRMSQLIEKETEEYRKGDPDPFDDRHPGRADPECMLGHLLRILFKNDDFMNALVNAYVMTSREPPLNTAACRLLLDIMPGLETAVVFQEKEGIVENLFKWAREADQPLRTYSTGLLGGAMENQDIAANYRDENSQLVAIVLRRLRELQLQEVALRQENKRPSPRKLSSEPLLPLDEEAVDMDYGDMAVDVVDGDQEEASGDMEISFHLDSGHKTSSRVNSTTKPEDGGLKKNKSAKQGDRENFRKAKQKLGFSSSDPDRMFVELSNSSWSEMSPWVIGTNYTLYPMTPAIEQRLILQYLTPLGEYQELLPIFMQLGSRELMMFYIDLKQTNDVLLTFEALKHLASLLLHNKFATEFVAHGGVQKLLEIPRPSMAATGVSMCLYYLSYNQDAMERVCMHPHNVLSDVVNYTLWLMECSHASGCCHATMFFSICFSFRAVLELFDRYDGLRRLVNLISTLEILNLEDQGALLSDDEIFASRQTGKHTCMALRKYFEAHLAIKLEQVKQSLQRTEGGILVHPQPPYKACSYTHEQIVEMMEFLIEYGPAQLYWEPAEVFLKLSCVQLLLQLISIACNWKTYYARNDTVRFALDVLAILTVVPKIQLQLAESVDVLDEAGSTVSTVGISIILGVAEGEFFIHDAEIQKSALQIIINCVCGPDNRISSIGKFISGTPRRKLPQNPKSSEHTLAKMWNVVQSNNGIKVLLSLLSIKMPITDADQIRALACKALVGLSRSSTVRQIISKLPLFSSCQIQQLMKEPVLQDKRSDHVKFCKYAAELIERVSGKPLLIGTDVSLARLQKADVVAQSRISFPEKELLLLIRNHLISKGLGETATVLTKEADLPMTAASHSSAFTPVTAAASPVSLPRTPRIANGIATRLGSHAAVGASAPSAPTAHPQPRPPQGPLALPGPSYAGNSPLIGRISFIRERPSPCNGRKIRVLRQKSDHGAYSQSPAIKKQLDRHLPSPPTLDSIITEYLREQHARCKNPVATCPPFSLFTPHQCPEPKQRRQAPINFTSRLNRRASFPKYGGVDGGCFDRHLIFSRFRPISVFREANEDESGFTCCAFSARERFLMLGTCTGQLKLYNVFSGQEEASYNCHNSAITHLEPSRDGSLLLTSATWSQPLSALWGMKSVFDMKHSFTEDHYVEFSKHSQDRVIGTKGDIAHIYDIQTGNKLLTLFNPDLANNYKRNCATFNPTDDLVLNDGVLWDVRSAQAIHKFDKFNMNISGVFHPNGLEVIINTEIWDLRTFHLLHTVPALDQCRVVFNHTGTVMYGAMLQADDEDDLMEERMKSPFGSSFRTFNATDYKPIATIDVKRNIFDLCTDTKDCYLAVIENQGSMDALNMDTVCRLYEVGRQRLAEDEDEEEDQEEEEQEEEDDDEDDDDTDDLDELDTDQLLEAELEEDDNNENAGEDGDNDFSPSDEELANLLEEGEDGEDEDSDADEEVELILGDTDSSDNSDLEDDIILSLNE
WDR5: WD repeat-containing protein 5 (WDR5, Homo sapiens, UniProt P61964)
DCAF1; 51.6 °C: 15500 a.u.
DCAF1; 94.61 °C: 30300 a.u.
DCAF1; 45.6 °C: 12400 a.u.
WDR5; 29.2 °C: 14900 a.u.
WDR5; 48.2 °C: 14400 a.u.
DCAF1; 35.2 °C: 8900 a.u.
WDR5; 39.2 °C: 14300 a.u.

A few entries again (block 2):
Cc1ccc(O)c(C)c1-c1cnc2[nH]c(-c3cnc(N4CCC5(CC4)CC(N4CCN(c6ccc7c(c6)C(=O)N(C6CCC(=O)NC6=O)C7=O)CC4)CO5)nc3)cc2c1C#N (mixture of isomers): 81.1% and 78.8%
Cc1ccc(O)c(C)c1-c1cnc2[nH]c(-c3cnc(N4CCC(CN5CCN(c6ccc(NC7CCC(=O)NC7=O)c(F)c6)CC5)CC4)nc3)cc2c1C#N (racemic): 81.4% and 82.2%
Cc1ncc(-c2cc3c(N)c(-c4c(C)ccc(O)c4C)cnc3[nH]2)cn1: 9.4% and 9.11%
